Experimental data of several laboratories.
Parts stem from different laboratories: compare values within a part only. Several values in a cell are separate wells, animals, samples, runs or records.

Study 1 — cell line: HEK-293T-ACE2-TMPRSS2; method: cell count; concentration: 10 µM
Compound	viability [%]
CCOC(=O)N1CCN(C2CCCN(C(=O)c3cc(C)nc(C)n3)C2)CC1 (stereo not shown)	114
CCc1cc2c(N3CCN(c4cccc(C)c4)C(C)C3)ncnc2s1 (stereo not shown)	71
CCOc1ccccc1CN1CCN(Cc2ccc3nsnc3c2)CC1CCO (stereo not shown)	111
Oc1ccc(CN2CCN(Cc3ccc(Br)s3)CC2)c2cccnc12	70
NC(=O)NC(CC(=O)NCc1ccc(Cl)cc1Cl)c1cccs1 (stereo not shown)	80
COc1ccc(Cn2ccc3nc4ccn(-c5ccn[nH]5)c(=O)c4cc3c2=O)cc1	111
COC(=O)c1ccc(CN2CCN(CC3CCCCC3)C(CCO)C2)cc1 (stereo not shown)	104
Cc1nc2sccn2c1C(=O)N1CCCC(C(=O)c2cccc(C(F)(F)F)c2)C1 (stereo not shown)	113
COc1cc(C=C2COC/C(=C\c3cc(OC)c(OC)c(OC)c3)C2=O)cc(OC)c1OC	80
CC1CN(S(=O)(=O)N2CCN(Cc3csc4ccccc34)CC2)CC(C)O1 (stereo not shown)	69
CN1CCCn2nc(C(=O)NCCSc3nnnn3C)cc2C1	66
CNC(=O)CC1C(=O)NCCN1Cc1c(C)cc(C)cc1-n1cccn1 (stereo not shown)	87
CCOC(=O)c1cc(C#N)c(Sc2nnc(SC)s2)nc1C(F)(F)F	67
CSc1nnc(NC(=O)c2nc(S(=O)(=O)Cc3ccccc3)ncc2Cl)s1	74
COc1ccc(CN2CCN(Cc3nc4ccccc4s3)CC2CCO)cc1C (stereo not shown)	100
O=C(O)c1cnc(/C=C/c2csc(-c3ccco3)n2)s1	66
CC(C)NC(=O)c1cccc(-c2noc(-c3cc4ccccc4[nH]3)n2)c1	71
CN(Cc1cc(-c2ccccn2)no1)C1CCC2(CCNCC2)CC1	65
CCc1ccc(C2C3=C(COC3=O)Nc3c2c(=O)n(C)c(=O)n3C)cc1 (stereo not shown)	65
CCSc1ncnc2c1sc1nc(C(C)C)c3c(c12)CC(C)(C)OC3	108
CC1Oc2ccc(Nc3nccc(C(F)(F)F)n3)cc2NC1=O (stereo not shown)	70
Cc1nc(Sc2nnc(-c3ccccc3)n2C)c2sc(=S)n(-c3ccccc3)c2n1	66
Cc1nc(Sc2nnnn2C2CC2)c2c(C)c(C)sc2n1	103
CC(C)(C)c1ccc(O)c(CN2CCC(CN)C2)c1 (stereo not shown)	76
O=C(c1ccoc1)N1CCC2(CCCN(CCCc3ccccc3)C2)C1 (stereo not shown)	112

Study 2 — read-out: enzyme activity; mode: inhibitor; method: radiometric; concentration: 0.5 µM
Target: Leukocyte tyrosine kinase receptor (LTK, Homo sapiens, UniProt P29376)
Chain of UniProt P29376 (whole entry, looked up): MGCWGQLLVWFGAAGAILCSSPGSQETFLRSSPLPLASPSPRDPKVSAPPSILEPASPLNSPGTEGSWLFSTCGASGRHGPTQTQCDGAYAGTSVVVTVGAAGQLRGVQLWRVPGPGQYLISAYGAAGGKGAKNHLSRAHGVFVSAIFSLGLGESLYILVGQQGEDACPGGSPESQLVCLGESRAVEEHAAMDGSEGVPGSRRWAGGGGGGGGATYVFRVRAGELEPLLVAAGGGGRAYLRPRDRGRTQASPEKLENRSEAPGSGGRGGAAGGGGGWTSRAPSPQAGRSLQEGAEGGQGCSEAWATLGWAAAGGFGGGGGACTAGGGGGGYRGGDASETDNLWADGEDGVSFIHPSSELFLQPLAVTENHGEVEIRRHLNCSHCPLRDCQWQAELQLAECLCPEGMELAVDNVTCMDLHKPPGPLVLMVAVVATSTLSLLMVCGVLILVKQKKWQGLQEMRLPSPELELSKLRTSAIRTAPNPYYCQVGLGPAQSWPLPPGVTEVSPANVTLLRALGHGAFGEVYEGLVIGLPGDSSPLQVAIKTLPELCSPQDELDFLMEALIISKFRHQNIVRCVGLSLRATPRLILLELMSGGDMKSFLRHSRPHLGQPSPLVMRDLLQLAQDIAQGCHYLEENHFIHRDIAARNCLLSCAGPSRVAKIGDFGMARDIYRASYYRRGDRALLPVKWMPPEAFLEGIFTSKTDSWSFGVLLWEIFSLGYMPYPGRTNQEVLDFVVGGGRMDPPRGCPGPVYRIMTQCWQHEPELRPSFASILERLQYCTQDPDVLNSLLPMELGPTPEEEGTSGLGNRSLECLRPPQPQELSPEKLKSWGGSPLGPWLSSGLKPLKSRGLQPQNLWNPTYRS
Compound	remaining activity [%]
COc1ccc(S(=O)(=O)N(CCO)c2ccccc2CN(C)CC=Cc2ccc(Cl)cc2)cc1	97.9
N#CC(=C(N)Sc1ccc(N)cc1)c1ccccc1C(F)(F)F	100
NC(=O)c1ccc(N(C(N)=O)c2c(F)cccc2F)nc1-c1ccc(F)cc1F	95
COc1cc(Nc2c(C#N)cnc3cc(OCCCN4CCN(C)CC4)c(OC)cc23)c(Cl)cc1Cl	57.7
Cc1ccc(NC2=CC(=O)c3sc(C)nc3C2=O)cc1	88.8
CC(=O)c1ccc(N2CCOCC2)cc1O	102
CC(C)(C)c1cc(C=C(C#N)C#N)cc(Br)c1O	96.5
CC(C)(C)n1nc(Cc2cccc3ccccc23)c2c(N)ncnc21	98.2
O=C1Cc2c([nH]c3ccc([N+](=O)[O-])cc23)-c2ccccc2N1	93.9
CCc1[nH]c(-c2ccc(OC)cc2)nc1-c1ccncc1	106
O=C1NC(=O)C(c2c[nH]c3ccccc23)=C1c1c[nH]c2ccccc12	85.1
O=S(=O)(NCCNC/C=C/c1ccc(Br)cc1)c1cccc2cnccc12	94.7
Nc1nc(Nc2ccc(S(N)(=O)=O)cc2)nn1C(=O)c1c(F)cccc1F	85.8
O=C1NC(=O)c2c1c1c3ccccc3n3c1c1c2c2ccccc2n1[C@H]1CC[C@@H]3O1	21.8
CC[n+]1c(/C=C/N(C)c2ccccc2)n(-c2ccccc2)c2ccc(-c3nc4ccccc4s3)cc21	90.7
Cc1cc(Nc2nc(-c3ccccc3)nc3ccccc23)n[nH]1	63.6
Fc1ccc(-c2nc3n(c2-c2ccncc2)CCS3)cc1	102
CCCC(=O)Oc1ccc2[nH]c(C(=O)c3cc4ccccc4[nH]3)cc2c1	87.5
CC#CC(=O)Nc1cc2c(Nc3ccc(F)c(Cl)c3)ncnc2cn1	93
Oc1ccc(Nc2nc(-c3ccc(Cl)cc3)cs2)cc1	104
Cc1cncc2cccc(S(=O)(=O)N3CCCN(C(=O)CN)C[C@@H]3C)c12	93
Nc1ncnc2c1cnn2-c1ccccc1	96.8
CSc1nc(-c2ccnc(N[C@@H](C)c3ccccc3)c2)c(-c2ccc(F)cc2)[nH]1 (racemic)	83.6

Study 3 — concentration: 0.1 µM; baseline: DMSO
SMILES: CNC(=N)NCCC[C@H](NC(=O)[C@H](CC(C)C)NC(=O)NNC(=O)[C@H](Cc1ccccc1)NC(=O)[C@H](CO)NC(=O)[C@H](CC(N)=O)NC(=O)[C@@H](Cc1ccncc1)NC(=O)[C@H](N)Cc1ccc(O)cc1)C(=O)N[C@@H](Cc1ccccc1)C(N)=O
cell line	method	setting	viability
sample B colorectal tumour organoid	–	replicate 2	105%
sample I colorectal tumour organoid	–	–	115%
sample I colorectal tumour organoid	–	replicate 1	102%
normal-adjacent epithelium patient-derived organoids sample G	CellTiter-Glo	–	121% and 107%

Study 4 — cell line: HEK-293T; organism: VSV pseudotyped with VSV-G; concentration: 10 µM; time: 16 h
SMILES	pseudovirus infection [%]
Cc1cccc([C@H](C)c2cnc[nH]2)c1C	118
NS(=O)(=O)c1cc(C(=O)O)c(NCc2ccco2)cc1Cl	90.1
COc1cc2c(c(OC)c1OC)-c1ccc(OC)c(=O)cc1[C@@H](NC(C)=O)CC2	17.9
Clc1ccc(COC(Cn2ccnc2)c2ccc(Cl)cc2Cl)cc1 (stereo not shown)	127
NC(=O)C(c1ccccc1)(c1ccccc1)[C@@H]1CCN(CCc2ccc3c(c2)CCO3)C1	96.7
CC(C)(C(=O)O)c1ccc(C(O)CCCN2CCC(C(O)(c3ccccc3)c3ccccc3)CC2)cc1 (stereo not shown)	94.6
c1ccc([C@H]2CN3CCSC3=N2)cc1	98.6
CC(C(=O)O)c1cccc(C(=O)c2ccccc2)c1 (stereo not shown)	90.9
CCN(CC)CC#CCOC(=O)C(O)(c1ccccc1)C1CCCCC1 (stereo not shown)	103
CCCNCC(O)COc1ccccc1C(=O)CCc1ccccc1 (stereo not shown)	108
NCCc1c[nH]cn1	120
O=C1OCCN1/N=C/c1ccc([N+](=O)[O-])o1	92.3
Clc1ccc2c(c1)CCc1cccnc1C2=C1CCNCC1	83.6
NNc1nncc2ccccc12	106
CCCCc1oc2ccccc2c1C(=O)c1cc(I)c(OCCN(CC)CC)c(I)c1	118
C=CCN1CC[C@]23c4c5ccc(O)c4O[C@H]2C(=O)CC[C@@]3(O)[C@H]1C5	121
COc1ccc(CCN(C)CCCC(C#N)(c2ccc(OC)c(OC)c2)C(C)C)cc1OC (stereo not shown)	112
CC(=O)NC[C@H]1CN(c2ccc(N3CCOCC3)c(F)c2)C(=O)O1	121
